Published values from different studies.
Protocols differ between the studies behind these lines. “And” joins repeats or separate records; there may be more than shown. ± gives the spread as reported.
SNF1: Carbon catabolite-derepressing protein kinase (SNF1, Candida albicans, UniProt P52497)
ALB: Albumin (ALB, Homo sapiens, UniProt P02768)
TOP2A: DNA topoisomerase 2-alpha (TOP2A, Homo sapiens, UniProt P11388)
uncharacterized protein: uncharacterized protein (Spodoptera exigua, UniProt F1CEY0)

CC[C@H](C)[C@@H]1NC(=O)[C@H](C)NC(=O)[C@H]([C@@H](C)CC)NC(=O)[C@H](CCC(N)=O)NC(=O)[C@H](C)NC(=O)[C@H](CCCNC(=N)N)NC(=O)[C@H](C(C)C)NC(=O)[C@H](CC(C)C)NC(=O)[C@H](CCC(=O)O)NC(=O)[C@H](CCCNC(=N)N)NC(=O)CNC(=O)[C@@H](NC(=O)[C@H](CC(C)C)NC(=O)[C@H](CCCCN)NC(=O)[C@@H](NC(=O)[C@@H](NC(=O)[C@H](CCC(=O)O)NC(=O)[C@H](CCC(=O)O)NC(=O)[C@H](CCSC)NC(=O)[C@H](Cc2c[nH]c3ccccc23)NC(=O)[C@H](CO)NC(=O)[C@@H](N)CC(=O)O)C(C)C)[C@@H](C)CC)CSSC[C@@H]2NC(=O)[C@@H](NC(=O)[C@H](CCCCN)NC(=O)[C@H](CC(N)=O)NC(=O)[C@H](C)NC(=O)[C@H](CC(C)C)NC(=O)[C@H](C)NC(=O)[C@H](CO)NC(=O)[C@H](Cc3ccc(O)cc3)NC(=O)[C@H](CC(C)C)NC(=O)[C@H](CCC(N)=O)NC(=O)c3ccc(-c4c5ccc(=[N+](C)C)cc-5oc5cc(N(C)C)ccc45)c(C(=O)[O-])c3)CSSC[C@H](NC(=O)CNC(=O)[C@H](C(C)C)NC(=O)[C@H](Cc3c[nH]cn3)NC2=O)C(=O)N[C@@H]([C@@H](C)O)C(=O)N[C@@H](CCCCN)C(=O)N[C@@H](CCCNC(=N)N)C(=O)N[C@@H](CO)C(=O)N[C@@H](CC(C)C)C(=O)N[C@@H](C)C(=O)N[C@@H](CCCNC(=N)N)C(=O)N[C@@H](Cc2ccccc2)C(=O)N[C@H](C(=O)O)CSSC[C@@H](C(=O)NCC(=O)N[C@@H](CCSC)C(=O)N[C@@H](CO)C(=O)N[C@H](C(=O)N[C@@H](Cc2c[nH]c3ccccc23)C(=O)N[C@@H](CO)C(=O)O)[C@@H](C)O)NC1=O
dissociation plateau (Relaxin receptor 1 (RXFP1, Homo sapiens, UniProt Q9HBX9, F76A/Y80A); binding, NanoBRET; together with: relaxin 10 µM): 7.04%

CC(C)c1noc2ncc(C(=O)c3ccccc3O)cc12
inhibition (Sodium channel protein type 3 subunit alpha (Scn3a, Rattus norvegicus, UniProt P08104); ion current, whole-cell patch-clamp; 10 µM, rNaV1.3): 3.02%

CC[C@H](C)[C@@H]1NC(=O)[C@H](Cc2ccc(-c3ccccc3)cc2)NC(=O)[C@H](CC(C)C)NC(=O)[C@@H]2[C@H]3CC[C@H](C3)N2C(=O)[C@@H](NC(=O)[C@H](CCCNC(=N)N)NC(=O)[C@H](CCCNC(=N)N)NC(C)=O)CSSC[C@@H](C(=O)N[C@@H](CCCNC(=N)N)C(=O)N[C@@H](CCCNC(=N)N)C(N)=O)NC(=O)[C@H](C(C)C)NC(=O)[C@@H]2CCCN2C(=O)[C@H](CC(=O)O)NC(=O)[C@H](Cc2ccc(O)cc2)NC(=O)[C@H](CO)NC1=O
lowest bound protein concentration (GTPase KRas, GDP-bound (KRAS, Homo sapiens, UniProt P01116, G12D); affinity selection mass spectrometry; mixture library 3, together with: protein titration up to 2.5 µM; lower is stronger binding): 0.31 to 0.62 µM

Cn1cc(-c2ccc(-c3cncc(Cl)c3N3CCC4(CCNC4=O)CC3)cc2)cn1
log2 fold change (COLO 205; gene expression, microarray, refers to: CTSV mRNA; concentration not given, 6 h; reference: untreated cells): -1.75

Cc1cc(-c2ccnc3[nH]cc(F)c23)cc(F)c1[C@@]1(O)[C@H](C)CN(C2CCS(=O)(=O)CC2)C[C@@H]1C
probe labelling inhibition (Tyrosine-protein kinase JAK1 (JAK1, Homo sapiens, UniProt P23458); ATP/ADP probe binding, KiNativ; HEK293T lysate; 1 µM, activation loop domain 2): 15.5%

COc1cc(NC(=O)c2cscn2)ccc1/N=N/c1ccccc1Cl
activation (Metabotropic glutamate receptor 4 (GRM4, Homo sapiens, UniProt Q14833); positive allosteric modulator, IP accumulation; HEK293; 30 µM, in the dark, together with: low-dose orthosteric agonist): 104%

CC(=O)N[C@H](C(=O)N1C[C@H](O)C[C@H]1C(=O)NCc1ccc(-c2scnc2C)cc1)C(C)(C)SCCCCCCNC(=O)C[C@@H]1N=C(c2ccc(Cl)cc2)c2c(sc(C)c2C)-n2c(C)nnc21
ΔH (von Hippel-Lindau disease tumor suppressor, with elongin B/C (VHL, Homo sapiens, UniProt P40337); ITC; 25 °C, binary): -6.7 ± 0.4 kcal/mol

O=C(O)c1ccc(Nc2ncc3c(n2)-c2ccc(Cl)cc2C(c2c(F)cccc2F)=NC3)cc1
remaining activity (MAPKAP-K3(h); kinase activity; 1 µM): 104%

O=C(c1ccc(I)cc1)N1CCC(n2cncc2-c2ccc(OS(=O)(=O)c3cccc4cnccc34)cc2)CC1
inhibition duration after washout (P2X purinoceptor 7 (P2RX7, Homo sapiens, UniProt Q99572); ATP-gated current; HEK293 stably expressing P2RX7; 300 nM): ≥ 25 min

Cc1ccc(S(=O)(=O)[N](Nc2ccc([N+](=O)[O-])cc2[N+](=O)[O-])[Sn]([Cl])[Cl])cc1
selectivity ratio (Prostaglandin G/H synthase 2 (PTGS2, Homo sapiens, UniProt P35354); reference: COX-1 IC50 over COX-2 IC50): 16.7

CC[C@@H]1[C@H](F)C(=O)N[C@@H]1COc1nccc2cc(C(N)=O)c(OC)cc12
inhibition (Mitogen-activated protein kinase 7 (MAPK7, Homo sapiens, UniProt Q13164); ATP-site probe binding, ActivX profiling, refers to: Erk5; THP-1 cell lysate; 0.2 mM, Lys2 site): -8.8%

Nc1ncnc2c1ncn2[C@@H]1O[C@H](COP(=O)(O)CP(=O)(O)OP(=O)(O)O)[C@@H](O)[C@H]1O
calcium influx (P2X purinoceptor 1 (P2RX1, Homo sapiens, UniProt P51575, K136A); calcium influx; 31.6 nM; reference: ionomycin response): 7.58% and 14.9% and 12.2%

Cc1cccc(N2CC(C(=O)O)CC2=O)c1 (stereo not shown)
log fold enrichment (DNA mismatch repair protein Msh6 (Homo sapiens, UniProt P52701); binding, affinity selection mass spectrometry; reference: other proteins in batch): -0.0471

Oc1ccccc1-c1n[nH]cc1-c1ccnc2ccccc12
log2 fold change (SNF1; kinase binding, MIB/MS competition; Candida albicans lysate; 1 µM; reference: DMSO, negative = stronger binding): -0.04

OC[C@H]1O[C@@H](Oc2cc3c(O)cc(O)cc3[o+]c2-c2cc(O)c(O)c(O)c2)[C@H](O)[C@@H](O)[C@@H]1O
binding entropy change (ALB; van't Hoff analysis; concentration not given): -0.01 kJ/(mol·K)

O=C(COP(=O)(O)O)[C@@H](O)[C@H](O)[C@H](O)COP(=O)(O)O
thermal stability ratio (Glycine--tRNA ligase (Homo sapiens, UniProt P41250); thermal proteome profiling, refers to: GARS; HepG2 cell lysate; concentration not given, 57 over 37 °C; reference: compound over control): 0.639 and 0.543 and 0.603

CC/C(=C(\c1ccc(O)cc1)c1ccc(OCCN(C)C)cc1)c1ccccc1
half-inactivation voltage (Voltage-gated sodium channel NavMs (Magnetococcus marinus, UniProt A0L5S6); sodium current, inhibitor, voltage dependence of inactivation; concentration not given): -122 ± 8 mV

Cc1nc(CSc2nc(SCc3ccc(C(C)C)cc3)nc(=O)[nH]2)cs1
mean decatenated DNA (TOP2A; decatenation; 31.25 µM): 19%

NC/C(=C\F)COc1cccc(Cn2c(=S)[nH]c(=O)c3[nH]cnc32)c1
inhibition (Amine oxidase copper-containing 3 (Canis lupus familiaris, UniProt A0A8I3MYY3); inhibitor; dog adipose tissue; 1 µM): 102%

C#Cc1c(F)ccc2cc(O)cc(-c3ncc4c(N5CC6CCC(C5)N6)nc(OC[C@@]56CCCN5C[C@H](F)C6)nc4c3F)c12
dissociation rate constant (GTPase KRas, GDP-bound (KRAS, Homo sapiens, UniProt P01116, G12C); binding): 0.000473 ± 0.00055 s⁻¹

CCCCC[C@H](O)/C=C/[C@H]1C(=O)C[C@H](O)[C@@H]1C/C=C\CCCC(=O)O
Emax (Prostaglandin D2 receptor (PTGDR, Homo sapiens, UniProt Q13258, K76R); Gs protein activation, agonist, BRET): 82 ± 7%

COc1cccc(F)c1-c1ccc(C(=O)NC[C@@H](N)C(=O)O)s1
Hill slope (Glutamate receptor ionotropic, NMDA 1, with GluN2C (Grin1, Rattus norvegicus, UniProt P35439); together with: glutamate 300 µM): 1.57

C1CCCC1.C1CCCC1.[Cl][W][Cl]
Gibbs free energy change (ALB; binding, fluorescence quenching; 317 K): -5.37 kcal/mol

O=C(O)C1CCCNC1 (stereo not shown)
normalised MST signal (Sodium- and chloride-dependent taurine transporter (SLC6A6, Homo sapiens, UniProt P31641, Y138A); binding, microscale thermophoresis; 7.81 µM, room temperature, together with: 50 nM labelled protein; higher = more binding): 0.297

Nc1nc2c(ncn2[C@@H]2O[C@H](COP(=O)(O)O)[C@@H](O)[C@H]2O)c(=O)[nH]1
reaction velocity (GUK1 (Homo sapiens, UniProt Q16774); enzyme activity, NADH-coupled; 1000 µM, together with: NaCl 50 mM): 0.101 µM/s and 0.0964 µM/s and 0.11 µM/s

COc1cnc2c(cc(C(=O)NCc3ccc(Cl)cc3)c(=O)n2CC(=O)N2CC(C)(F)C2)n1
Hill slope (DNA polymerase catalytic subunit (Human cytomegalovirus, UniProt P08546); enzyme activity, inhibitor): 0.8

Cc1nc(NC(=O)N2CCC[C@H]2C(N)=O)sc1-c1ccnc(C(C)(C)C(F)(F)F)c1
remaining binding (Tyrosine-protein kinase JAK1, JH2 pseudokinase domain (JAK1, Homo sapiens, UniProt P23458); KINOMEscan; 10 µM): 100%

COC(=O)C(Cc1cccc(OC)c1I)NC(=O)CN(Cc1ccccc1)C(C)=O (stereo not shown)
activity (Kappa-type opioid receptor (OPRK1, Homo sapiens, UniProt P41145); binding; concentration not given): inactive

O=c1nc(SCc2cc(F)cc(C(F)(F)F)c2)nc(SCc2ccc3nc(Cl)ccc3c2)[nH]1
relaxed DNA (TOP2A; DNA relaxation; 62.5 µM, replicate 2): 0%

CC(=O)Nc1ccc(O)cc1
chemical shift change (Bromodomain-containing protein 4 (BRD4, Homo sapiens, UniProt O60885); 19F NMR, refers to: tyrosine 97; 188 µM; reference: free protein): -0.127 ppm

C[C@H](N)C(=O)Nc1ccc2ccccc2c1
Km (Puromycin-sensitive aminopeptidase (Rattus norvegicus, UniProt F1M9V7); substrate): 10 µM

CC/C=C\CCO
relative fluorescence (uncharacterized protein; binding, 1-NPN competitive displacement; protein 2.0 µM, together with: 1-NPN 20 µM; reference: 1-NPN without compound, lower = stronger binding): 81.2%

OC[C@H]1O[C@@H](Oc2cc3c(O)cc(O)cc3[o+]c2-c2ccc(O)cc2)[C@H](O)[C@@H](O)[C@@H]1O
binding enthalpy change (ALB; van't Hoff analysis; concentration not given): -5.34 kcal/mol

N[C@H](CNC(=O)c1cc(Br)c(-c2ccccc2F)s1)C(=O)O
Hill slope (Glutamate receptor ionotropic, NMDA 1, with GluN2C (Grin1, Rattus norvegicus, UniProt P35439, S688A); rat; together with: glutamate 300 µM): 1.22

N#Cc1ccc2c(-c3ccncc3)c(-c3ccc(F)cc3)nn2c1
log2 fold change (SNF1; kinase binding, competitor, MIB/MS competition, refers to: SNF1; Candida albicans cell lysate; 1 µM; reference: DMSO): 0.051

CCCCCCCCCCCC
relative fluorescence (uncharacterized protein; binding, competitor, fluorescence displacement; 20 µM, pH 7.4, together with: 1-NPN 20 µM; reference: 1-NPN alone): 68.3%

Cc1cn([C@H]2C[C@H](N=[N+]=[N-])[C@@H](CO)O2)c(=O)[nH]c1=O
Vmax (UDP-glucuronosyltransferase 2B7 (UGT2B7, Homo sapiens, UniProt P16662); glucuronidation, substrate; washed microsomes; together with: 2% BSA): 586 ± 128 pmol/min/mg protein
